Assay results gathered from unrelated publications.
Each numbered part is a random draw from the data of one study; scales do not carry over between parts.

Block 1 — technique: RNA Bind-n-Seq; form: RNA; matrix: in vitro; concentration: 365 nM; baseline: no-protein control; reading: higher = stronger binding
Target: RNA binding protein fox-1 homolog 2, RRM domain, GST-SBP tag (RBFOX2, Homo sapiens, UniProt O43251-10, residues 100-194)
Notes: natural RNA segment, single round, ends assumed
Target sequence (chain): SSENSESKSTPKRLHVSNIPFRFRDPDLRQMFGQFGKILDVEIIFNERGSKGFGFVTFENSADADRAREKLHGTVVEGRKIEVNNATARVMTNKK
`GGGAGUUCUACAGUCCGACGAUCUGCUCAGUGCUGAACUAUAACUGCCACACGUCCCCUCAUAUCAAAUGGAGCAGUGGCAAUCUCCCUGUUCCCCAACCUAACUCUUGGAACUUGGCCCUCUCCUUUCUUCCUGGAAUUCUCGGGUGCCAA` — result for “RBNS enrichment (R)”: 0.432.
Under “RBNS enrichment (R)”, `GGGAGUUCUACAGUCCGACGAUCGUGUGCAGGCAUCGCAGAUGGGGGUUCUUUCAGUUCAAAAGUGAGAUGUCUGGAGAUCAUAUUUUUUUAUACAGGUAUUUCAAUUAAAAUGUUUUUGUACAUAGUGGAUAUGGAAUUCUCGGGUGCCAA` is recorded as 0.677.
For `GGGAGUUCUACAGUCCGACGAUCAGAUAAAUGGGUAUACUGGAAUCCGAUGCCGUUUCUACAGUAAAGUGCAAUCUUCGUUGUUUUUGUAUUUAUUUGUAUGUUCAGAUCCAAAGGAUCCGUUGUAAAAAUAUUGGAAUUCUCGGGUGCCAA`, “RBNS enrichment (R)” read 0.547.
Under “RBNS enrichment (R)”, `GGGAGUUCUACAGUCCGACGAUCGCCGUGUUACUAACUCUAGUAUGUUUCUGUGUCAAUCGCUGUGAAAUAAAGUCUGAAAACUUUAAAAGCAUUGCUUUUGUCCAUCCUCACCAGCGCGCUGGCCCGUUGGCUGGAAUUCUCGGGUGCCAA` is recorded as 0.28.
`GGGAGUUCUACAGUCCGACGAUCUUCUCCAGAGCGCCAGCCAGCCACGGGCCUGAUUCCAGAGGAGCCGAACUGACAGGACACAGCAGGCUGGAGUUGGUGUUAGAUUGCUUCACAUUCUCUUGUCACCACCAUGGAAUUCUCGGGUGCCAA`: “RBNS enrichment (R)” 0.504.
`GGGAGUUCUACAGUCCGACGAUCCUCCUGCUUUGGAUCUAACAGCUGAGUCCAGACAGGCUCCCCACAGGUCACCCUUGCACGGGUUUGGCCAACACCAUGAAGGAGUUGCCUUGGAGUUUCACCUGCAUAGCUGGAAUUCUCGGGUGCCAA` — result for “RBNS enrichment (R)”: 0.973.
For `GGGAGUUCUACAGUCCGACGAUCCCAGGGAUGGGGCCACAGCCAGAACCCCGAGCCCUACUUCCAGGUUCUGGUUAGCUCAGCCCCAGCCCAGCCCAGCUGCUCUGCCCAGAGCUGGGUGAGUGGGGAGACACUGGAAUUCUCGGGUGCCAA`, “RBNS enrichment (R)” read 0.851.
Under “RBNS enrichment (R)”, `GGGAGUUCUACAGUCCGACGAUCUUUAAAAUGGUGCCCUACCAUUGACACAUGCAGAAAUUGGUGCGUUUUGUUUUUUUUUUUCCUAUGCUGCUCUGUUUUGUCUUAAAGGUCUUGAGGGUUGACCAUGUUGCUGGAAUUCUCGGGUGCCAA` is recorded as 4.35.

Block 2 — technique: RNA Bind-n-Seq; form: RNA; matrix: in vitro; concentration: 200 nM; notes: whole 134-nt RNA, ends assumed; together with: 150 mM LiCl; baseline: input library; reading: higher = stronger binding; library: 7-deaza-guanosine replaces G
Target: Fragile X messenger ribonucleoprotein 1, C-terminal low-complexity region (Fmr1, Mus musculus, UniProt P35922)
`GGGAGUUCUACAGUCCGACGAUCUGGGAGGUGGAUUUUGUUUAUUUUUUUAGUUCAUUUCCAGGGGUGGGAAUUUUUUUUUAAUAUGUGUCAUGAAUAAAGUUGUUUUUGAAAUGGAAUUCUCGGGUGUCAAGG` has a log2 enrichment of -1.18.
`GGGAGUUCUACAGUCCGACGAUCAGUCCUGUGCUACACAUCGUAUGUACCGAAUCGGGAAAGGGUUUGGGAAAAAAAGGGAAAGUAUUAUGUUACGCCGUUCGGAUCUGCACUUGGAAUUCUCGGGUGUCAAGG` has a log2 enrichment of -2.54.
`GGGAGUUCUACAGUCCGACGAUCCAAGUCCUGUGCUACACAUCGUAUGUACCGAAUCGGCCCGGGGCCCGGGGCCCGGAAAGUAUUAUGUUACGCCGUUCGGAUCUGCACUUCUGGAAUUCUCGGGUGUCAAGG` gave a log2 enrichment of -1.36.
The log2 enrichment of `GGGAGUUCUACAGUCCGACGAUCCAAGUCCUGUGCUACACAUCGUAUGUACCGAAUCGGGUUUUUUUGGGAGGGAGGGAAAGUAUUAUGUUACGCCGUUCGGAUCUGCACUUCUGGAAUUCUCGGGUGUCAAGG` is reported as -0.0925.
`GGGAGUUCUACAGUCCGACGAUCUAACUCUAGAGGAGGAUCUGAUGGAUAUGGCAGUGGACGUGGAUUUGGGGAUGGCUAUAAUGGGUAUGGAGGAGGACCUGGAGGUGGCAAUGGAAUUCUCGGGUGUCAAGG` has a log2 enrichment of 0.295.
`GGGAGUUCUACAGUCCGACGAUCACCAUGCAGGUGGGCAUCUCUGGGAAGUGGGGCAAGGGGGGGAUAGGGAGGGGGGUAACACUUUGGGAACAGGUGGUCCCAGGUCGUUUCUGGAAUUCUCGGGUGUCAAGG` gave a log2 enrichment of 1.53.
For `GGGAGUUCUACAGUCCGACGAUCCCUCAAGUCCUGUGCUACACAUCGUAUGUACCGAAUCGGGGAAGGAAGGAAGGAAAGUAUUAUGUUACGCCGUUCGGAUCUGCACUUCCAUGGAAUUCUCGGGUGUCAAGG`, the log2 enrichment was -1.47.
`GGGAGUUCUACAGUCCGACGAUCGUCCUGUGCUACACAUCGUAUGUACCGAAUCGGGGAAAAAGGGGAAAGGGGAAAGGGGAAAGUAUUAUGUUACGCCGUUCGGAUCUGCACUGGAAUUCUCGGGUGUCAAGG` gave a log2 enrichment of 1.09.

Block 3 — technique: protein binding microarray; form: double-stranded DNA, one strand shown; matrix: in vitro; concentration: not given; baseline: not given; reading: higher = stronger binding
Target: Histone acetyltransferase KAT6A, both winged helices, GST fusion (KAT6A, Homo sapiens, UniProt Q92794, residues 1-181)
Notes: 8-mer, flanks averaged, mean of 2 arrays, mostly near background
Construct (chain): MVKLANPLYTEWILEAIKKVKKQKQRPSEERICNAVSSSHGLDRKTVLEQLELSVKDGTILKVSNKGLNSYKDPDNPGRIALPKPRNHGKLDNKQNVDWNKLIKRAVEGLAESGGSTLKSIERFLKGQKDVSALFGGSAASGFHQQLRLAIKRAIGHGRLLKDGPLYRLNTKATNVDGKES
`ACACGCAT` has an E-score of 0.143.
`AAGCGTGG` gave an E-score of 0.035.
The E-score of `GGATACAA` is reported as -0.0643.
The E-score of `CGTGTCAA` is reported as 0.129.
With `AACCATGT` the E-score was -0.0979.
For `AGACGTGC`, the E-score was 0.0535.
`CTATGGCA` has an E-score of -0.0903.
With `ACAGCCCG` the E-score was 0.0491.
For `CAGGAGCC`, the E-score was -0.0314.
The E-score of `GACCAAGA` is reported as -0.154.
With `AGTATGTA` the E-score was -0.127.
`GCCTACGC` has an E-score of 0.135.
The E-score of `ACCTCCTC` is reported as -0.207.
With `CGGGAAGA` the E-score was 0.275.
With `CAAAACCC` the E-score was -0.0403.
`AGGATGTC` has an E-score of -0.0536.
`TAAACCCA` gave an E-score of -0.291.
With `AGTGGTAG` the E-score was -0.0789.
The E-score of `GTACTCAA` is reported as -0.0711.
`CAATCCAC` has an E-score of -0.223.
`ACTGAATC` has an E-score of -0.0718.
The E-score of `AGAGACGC` is reported as 0.208.

Block 4 — technique: universal PBM; form: double-stranded DNA, one strand shown; matrix: in vitro; concentration: not given; reading: higher = stronger binding
Target: Sal-like protein 4, full length isoform B (SALL4, Homo sapiens, UniProt Q9UJQ4-2, residues 1-616)
Notes: 8-mer, flanks averaged, mean of replicates
Residues (chain): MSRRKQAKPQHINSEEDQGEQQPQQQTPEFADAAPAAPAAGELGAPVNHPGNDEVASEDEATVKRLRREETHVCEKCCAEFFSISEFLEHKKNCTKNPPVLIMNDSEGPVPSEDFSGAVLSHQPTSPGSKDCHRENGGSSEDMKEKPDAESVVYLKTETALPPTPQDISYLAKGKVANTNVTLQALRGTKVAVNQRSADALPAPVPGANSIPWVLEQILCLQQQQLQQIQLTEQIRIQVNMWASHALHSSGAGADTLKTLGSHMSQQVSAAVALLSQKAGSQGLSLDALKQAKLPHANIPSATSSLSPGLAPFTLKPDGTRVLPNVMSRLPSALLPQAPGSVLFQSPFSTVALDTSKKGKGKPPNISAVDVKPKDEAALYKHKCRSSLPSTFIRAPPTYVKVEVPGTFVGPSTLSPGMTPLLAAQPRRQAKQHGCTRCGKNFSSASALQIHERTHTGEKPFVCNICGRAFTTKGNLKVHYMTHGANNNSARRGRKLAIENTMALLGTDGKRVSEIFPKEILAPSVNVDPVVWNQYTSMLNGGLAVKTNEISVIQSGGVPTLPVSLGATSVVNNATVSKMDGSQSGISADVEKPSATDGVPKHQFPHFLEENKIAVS
The E-score of `CCAGCTAG` is reported as -0.187.
`GGGTGGAA` gave an E-score of 0.0473.
With `CAGTTCCG` the E-score was -0.261.
For `ACGAGGTG`, the E-score was 0.0377.
`ATAACGCG` has an E-score of 0.00967.
`AGCTCGGA` has an E-score of -0.314.
For `AAACCGCA`, the E-score was -0.271.
With `CAGCCTTA` the E-score was -0.0571.
The E-score of `AGGGTCTG` is reported as -0.284.
The E-score of `GAGTAAGA` is reported as 0.129.
With `AGAGCTTG` the E-score was -0.17.
With `GGTAACTA` the E-score was 0.157.
`GGGAAAAC` has an E-score of -0.0765.
For `AGCTGCTC`, the E-score was -0.178.
`GCTCGTCA` has an E-score of -0.17.
`ACAGTCTG` gave an E-score of -0.0686.
With `TAAGCTCA` the E-score was -0.0684.
`AGTTGAAG` has an E-score of -0.00158.
`CGGGTCCC` gave an E-score of -0.381.
`TCTAACCA` has an E-score of 0.0804.
`CGAGATTC` has an E-score of -0.143.
For `GAATTTAA`, the E-score was 0.12.
The E-score of `CAAATTAA` is reported as 0.24.
`GACCCGGC` has an E-score of -0.317.
The E-score of `GCTTTCCA` is reported as -0.04.

Excerpt of the above (block 2):
The log2 enrichment of `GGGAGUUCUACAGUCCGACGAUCCAAGUCCUGUGCUACACAUCGUAUGUACCGAAUCGGGUUUUUUUGGGAGGGAGGGAAAGUAUUAUGUUACGCCGUUCGGAUCUGCACUUCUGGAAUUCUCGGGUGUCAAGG` is reported as -0.0925.
`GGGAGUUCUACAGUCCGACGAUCUAACUCUAGAGGAGGAUCUGAUGGAUAUGGCAGUGGACGUGGAUUUGGGGAUGGCUAUAAUGGGUAUGGAGGAGGACCUGGAGGUGGCAAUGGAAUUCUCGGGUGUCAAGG` has a log2 enrichment of 0.295.
`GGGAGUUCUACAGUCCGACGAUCACCAUGCAGGUGGGCAUCUCUGGGAAGUGGGGCAAGGGGGGGAUAGGGAGGGGGGUAACACUUUGGGAACAGGUGGUCCCAGGUCGUUUCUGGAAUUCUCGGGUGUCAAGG` gave a log2 enrichment of 1.53.
For `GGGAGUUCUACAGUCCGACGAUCCCUCAAGUCCUGUGCUACACAUCGUAUGUACCGAAUCGGGGAAGGAAGGAAGGAAAGUAUUAUGUUACGCCGUUCGGAUCUGCACUUCCAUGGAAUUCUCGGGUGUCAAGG`, the log2 enrichment was -1.47.
`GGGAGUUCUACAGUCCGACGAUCGUCCUGUGCUACACAUCGUAUGUACCGAAUCGGGGAAAAAGGGGAAAGGGGAAAGGGGAAAGUAUUAUGUUACGCCGUUCGGAUCUGCACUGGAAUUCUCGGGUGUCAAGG` gave a log2 enrichment of 1.09.
